Published values collected from several papers.
Parts stem from different laboratories: compare values within a part only.

Set 1
Target: POU domain, class 6, transcription factor 1, POU and homeodomain (POU6F1, Homo sapiens, UniProt Q14863, residues 311-611)
Method: protein-binding microarray
Form: hairpin DNA
Medium: in vitro
Tested at: not given
Notes: whole hairpin DNA, median over replicate spots
Reference: not given
Reading: higher = stronger binding
Constant ends, left off below: GAGGCC … GGCCTCACACTCTT
Residues (chain): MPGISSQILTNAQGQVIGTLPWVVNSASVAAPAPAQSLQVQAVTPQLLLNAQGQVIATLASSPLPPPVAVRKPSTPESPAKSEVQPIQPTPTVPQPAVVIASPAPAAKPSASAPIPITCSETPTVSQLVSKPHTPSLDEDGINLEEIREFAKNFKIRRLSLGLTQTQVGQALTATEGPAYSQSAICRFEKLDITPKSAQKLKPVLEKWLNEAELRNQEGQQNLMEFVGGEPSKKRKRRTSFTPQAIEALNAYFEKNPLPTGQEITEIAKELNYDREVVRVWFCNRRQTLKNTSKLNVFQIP
Strand	median fluorescence [a.u.]
ATAATGAGCGGCCTCCTGGCCGCTCATTAT (5mC at 27)	1990
ATCATGAGGTGCCTCCTGGCACCTCATGAT (5mC at 9)	382
ATAATTCGGTGCCTCCTGGCACCGAATTAT (5mC at 29)	578
ATAATTAGCGGCCTCCTGGCCGCTAATTAT (5mC at 15)	1720
TTAATGAGGTGCCTCCTGGCACCTCATTAA	2160
ATACGGAGGTGCCTCCTGGCACCTCCGTAT	328
ATAATGACGTGCCTCCTGGCACGTCATTAT	872
ATAATGCGGTGCCTCCTGGCACCGCATTAT (5mC at 13 29)	556

Set 2
Target: Myc proto-oncogene protein, bHLH-zipper, MAX partner unstated (MYC, Homo sapiens, UniProt P01106, residues 368-449)
UniProt P01106, sequence (368-449, looked up): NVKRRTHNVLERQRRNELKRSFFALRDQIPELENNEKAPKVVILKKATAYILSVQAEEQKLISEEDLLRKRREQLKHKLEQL
Method: protein-binding microarray
Form: double-stranded DNA, one strand shown
Medium: in vitro
Tested at: not given
Notes: k-mer, scored over probes, only values ≥0.25
Reading: higher = stronger binding
Strand	E-score
ACGTGGTA	0.444
CGTGGGAA	0.391
TGCCCACA	0.25
GGTCCACA	0.292
GTGGCGCA	0.362
CGCGTGAC	0.425
CTCGCGTC	0.274
ACGCGGCA	0.359

Set 3
Target: Prothrombin, mature alpha-thrombin (F2, Homo sapiens, UniProt P00734)
Method: aptamer microarray, sandwich
Form: DNA with 2'F-ANA
Medium: in vitro
Tested at: 200 nM
Notes: whole 15-mer aptamer, many near background
With: Cy3 exosite-II aptamer, 400 nM
Reading: higher = stronger binding
Strand: GGTTGGTGTGGTTGG
Modification	mean fluorescence intensity
2'F-ANA at 1 2 6 8 9 11 12 13	202 a.u.
2'F-ANA at 1 3 6 7 8 9 10 12 15	115 a.u.
2'F-ANA at 1 5 6 7 10 12 13 15	48.5 a.u.
2'F-ANA at 2 5 6 8 9 12 15	155 a.u.
2'F-ANA at 1 2 3 5 7 10 11 12 13 14 15	60.7 a.u.
2'F-ANA at 1 4 5 6 8 11 15	55.4 a.u.
2'F-ANA at 1 4 6 7 9 10 12 13 14 15	90.3 a.u.
2'F-ANA at 1 2 4 9 11 12 13 14 15	73.2 a.u.

Further values, each from its own experiment
Molecule	target	test	system	setting	measurement	value
TTLRYPIGK	HLA class I histocompatibility antigen, A alpha chain, allele A*80:01 (Homo sapiens, UniProt P04439)	peptide-MHC binding	peptide	concentration not given	binding	inactive
